Measurements from different studies.
Lines come from different studies, so protocols differ. Numbers after ± are the reported error.
CYP2C8: Cytochrome P450 2C8 (CYP2C8, Homo sapiens, UniProt P10632)
Chain of UniProt P10632 (whole entry, looked up): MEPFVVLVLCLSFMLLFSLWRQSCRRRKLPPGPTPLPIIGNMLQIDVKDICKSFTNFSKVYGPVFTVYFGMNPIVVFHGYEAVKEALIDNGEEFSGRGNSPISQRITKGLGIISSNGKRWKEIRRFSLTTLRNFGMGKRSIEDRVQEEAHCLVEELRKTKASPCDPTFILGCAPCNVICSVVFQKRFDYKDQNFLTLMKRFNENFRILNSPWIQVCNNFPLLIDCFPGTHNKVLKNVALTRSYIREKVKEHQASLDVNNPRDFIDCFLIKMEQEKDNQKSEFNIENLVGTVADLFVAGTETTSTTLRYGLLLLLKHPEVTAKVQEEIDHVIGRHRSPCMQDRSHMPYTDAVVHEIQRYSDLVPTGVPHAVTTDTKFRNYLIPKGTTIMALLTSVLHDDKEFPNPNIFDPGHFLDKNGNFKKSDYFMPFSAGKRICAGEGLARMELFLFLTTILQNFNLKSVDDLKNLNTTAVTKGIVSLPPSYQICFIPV
Chain of UniProt Q7TMS5 (whole entry, looked up): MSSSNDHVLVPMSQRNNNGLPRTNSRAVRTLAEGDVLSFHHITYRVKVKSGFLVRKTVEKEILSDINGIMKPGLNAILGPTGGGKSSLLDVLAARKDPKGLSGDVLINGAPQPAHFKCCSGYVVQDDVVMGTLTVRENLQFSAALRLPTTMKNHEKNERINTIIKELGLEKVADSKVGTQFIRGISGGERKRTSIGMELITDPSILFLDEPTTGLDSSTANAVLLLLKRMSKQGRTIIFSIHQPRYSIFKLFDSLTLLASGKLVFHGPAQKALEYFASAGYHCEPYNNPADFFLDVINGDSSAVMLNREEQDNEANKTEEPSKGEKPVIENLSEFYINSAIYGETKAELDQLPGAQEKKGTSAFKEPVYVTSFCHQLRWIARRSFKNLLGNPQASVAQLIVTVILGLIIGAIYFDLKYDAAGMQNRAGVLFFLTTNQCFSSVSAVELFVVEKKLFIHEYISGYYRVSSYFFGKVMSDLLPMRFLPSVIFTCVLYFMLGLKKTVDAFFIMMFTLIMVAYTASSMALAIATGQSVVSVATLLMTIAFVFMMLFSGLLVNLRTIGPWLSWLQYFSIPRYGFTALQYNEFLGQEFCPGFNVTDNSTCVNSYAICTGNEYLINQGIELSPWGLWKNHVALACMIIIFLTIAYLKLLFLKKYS
Chain of UniProt P11509 (whole entry, looked up): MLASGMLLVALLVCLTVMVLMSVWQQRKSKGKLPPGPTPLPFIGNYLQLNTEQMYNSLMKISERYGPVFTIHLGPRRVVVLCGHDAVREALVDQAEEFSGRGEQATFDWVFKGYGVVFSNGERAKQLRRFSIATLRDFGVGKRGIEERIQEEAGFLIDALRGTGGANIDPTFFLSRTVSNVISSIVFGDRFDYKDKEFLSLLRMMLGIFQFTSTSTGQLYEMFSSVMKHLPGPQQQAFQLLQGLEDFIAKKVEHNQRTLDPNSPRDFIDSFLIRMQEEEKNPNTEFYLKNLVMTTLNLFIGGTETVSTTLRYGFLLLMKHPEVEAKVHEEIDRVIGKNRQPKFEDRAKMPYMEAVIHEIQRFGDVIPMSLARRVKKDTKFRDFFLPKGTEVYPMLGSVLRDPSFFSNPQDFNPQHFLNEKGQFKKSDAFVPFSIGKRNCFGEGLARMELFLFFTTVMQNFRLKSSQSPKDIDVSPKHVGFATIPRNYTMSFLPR
Chain of UniProt P08682 (whole entry, looked up): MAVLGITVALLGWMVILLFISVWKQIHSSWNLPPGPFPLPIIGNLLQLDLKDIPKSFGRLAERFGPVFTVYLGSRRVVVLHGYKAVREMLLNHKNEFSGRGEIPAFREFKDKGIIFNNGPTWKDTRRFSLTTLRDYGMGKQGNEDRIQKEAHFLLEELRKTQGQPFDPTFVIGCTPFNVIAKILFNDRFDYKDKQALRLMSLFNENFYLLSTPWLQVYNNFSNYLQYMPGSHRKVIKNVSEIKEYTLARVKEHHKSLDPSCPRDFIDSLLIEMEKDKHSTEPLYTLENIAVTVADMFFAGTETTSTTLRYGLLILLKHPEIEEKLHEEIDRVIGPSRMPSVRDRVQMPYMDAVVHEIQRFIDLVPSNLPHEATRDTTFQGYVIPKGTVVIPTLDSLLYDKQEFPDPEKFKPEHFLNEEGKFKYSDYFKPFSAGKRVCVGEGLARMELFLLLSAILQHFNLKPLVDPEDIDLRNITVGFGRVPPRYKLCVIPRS
Chain of UniProt P20813 (whole entry, looked up): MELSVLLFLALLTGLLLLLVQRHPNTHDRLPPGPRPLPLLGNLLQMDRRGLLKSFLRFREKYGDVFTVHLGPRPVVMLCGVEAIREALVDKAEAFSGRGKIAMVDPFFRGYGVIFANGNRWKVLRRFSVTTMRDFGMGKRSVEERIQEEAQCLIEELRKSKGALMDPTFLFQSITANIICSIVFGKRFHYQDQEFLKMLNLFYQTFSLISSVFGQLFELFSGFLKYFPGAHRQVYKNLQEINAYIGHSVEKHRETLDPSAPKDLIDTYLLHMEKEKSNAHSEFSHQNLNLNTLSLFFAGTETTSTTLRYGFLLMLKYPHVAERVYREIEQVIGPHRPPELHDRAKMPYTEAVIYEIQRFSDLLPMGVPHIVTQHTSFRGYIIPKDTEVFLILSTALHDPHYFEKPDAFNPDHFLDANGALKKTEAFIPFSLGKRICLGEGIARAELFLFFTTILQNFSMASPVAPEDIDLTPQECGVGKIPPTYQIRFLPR

For `CCCCC/C=C\C/C=C\C/C=C\C/C=C\CCCC(=O)O`, the inhibition was 40% (cytochrome P450 enzymes; M1 formation, inhibitor; pooled human intestinal microsomes; 100 µM, 5 min, pH 7.4, substrate named only as label, together with: 3 µM substrate).
For `c1n[nH]c2c1CCCC2`, the Ki was 2.7 µM (CYP2E1 (Oryctolagus cuniculus, UniProt P08682); inhibitor; pH 7.4, 37 °C, cooperative site, together with: 4-nitrophenol).
For `Cn1cc(S(=O)(=O)N2CCC3=Cc4c(cnn4-c4ccc(F)cc4)C[C@]3(C(=O)c3cc(C(F)(F)F)ccn3)C2)cn1`, CYP2C8 inhibition read “no inhibition” (CYP2C8; healthy human subjects; oral, 350 mg once daily, together with: pioglitazone probe substrate).
The IC50 of `CC1=N[C@]2(C(=O)CO)[C@@H](C[C@H]3[C@@H]4C[C@@H](O)C5=CC(=O)C=C[C@]5(C)[C@H]4[C@@H](O)C[C@@]32C)O1` is reported as greater than 50 µM (CYP2C8; enzyme activity, inhibitor; human, liver microsomes; with preincubation).
Under “remaining intact compound”, `CC[C@H](C)[C@H](NC(=O)[C@H](CCC(=O)O)NC(=O)[C@H](CO)NC(=O)[C@@H](NC(=O)[C@@H](N)CO)C(C)C)C(=O)N[C@@H](CCC(N)=O)C(=O)N[C@@H](CC(C)C)C(=O)N[C@@H](CCSC)C(=O)N[C@@H](Cc1cnc[nH]1)C(=O)N[C@@H](CC(N)=O)C(=O)N[C@@H](CC(C)C)C(=O)NCC(=O)N[C@@H](CCCCN)C(=O)N[C@@H](Cc1cnc[nH]1)C(=O)N[C@@H](CC(C)C)C(=O)N[C@@H](CC(N)=O)C(=O)N[C@@H](CO)C(=O)N[C@@H](CCSC)C(=O)N[C@@H](CCC(=O)O)C(=O)N[C@@H](CCCN=C(N)N)C(=O)N[C@H](C(=O)N[C@@H](CCC(=O)O)C(=O)N[C@@H](Cc1c[nH]c2ccccc12)C(=O)N[C@@H](CC(C)C)C(=O)N[C@@H](CCCN=C(N)N)C(=O)N[C@@H](CCCCN)C(=O)N[C@@H](CCCCN)C(=O)N[C@@H](CC(C)C)C(=O)N[C@@H](CCC(N)=O)C(=O)N[C@@H](CC(=O)O)C(=O)N[C@H](C(=O)N[C@@H](Cc1cnc[nH]1)C(=O)N[C@@H](CC(N)=O)C(=O)N[C@@H](Cc1ccccc1)C(=O)O)C(C)C)C(C)C` is recorded as 0% (Chymotrypsinogen A, activated (chymotrypsin) (Bos taurus, UniProt P00766); substrate, HPLC-UV; 15 min, pH 6.5, 37 °C, without trypsin inhibitor).
For `Cc1ccc(Nc2nccc(N(C)c3ccc4c(C)n(C)nc4c3)n2)cc1S(N)(=O)=O`, the Papp A-B was 23.3 ± 1 nm/s (Broad substrate specificity ATP-binding cassette transporter ABCG2 (Mus musculus, UniProt Q7TMS5); bidirectional transport; MDCK-Bcrp1 (murine Bcrp1); 5 µM, 240 min, together with: canertinib).
The IC50 of `(+)-α-pinene` is reported as 292 µM (Cytochrome P450 2B6 (CYP2B6, Homo sapiens, UniProt P20813); enzyme activity, inhibitor, Vivid fluorescent).
The Km of `O=c1ccc2ccccc2o1` is reported as 1.06 ± 0.41 µM (CYP2A6 human; 7-hydroxylation, substrate; human liver microsomes; CYP2A6 added 433 pmol/mg, ratio 1).
The KI (inactivation) of `Cc1coc2c1CC[C@@H](C)C2` is reported as 2.2 µM (Cytochrome P450 2A6 (CYP2A6, Homo sapiens, UniProt P11509); enzyme activity, inhibitor; pH 7.4).
With `CN1CCN2c3ccccc3Cc3ccccc3C2C1` (stereo not shown) the Kd was 219 µM (alpha-1-acid glycoprotein (human); isothermal titration calorimetry; pH 7.4, 30 °C, heterogeneous AGP preparation).

A few entries again:
The IC50 of `CC1=N[C@]2(C(=O)CO)[C@@H](C[C@H]3[C@@H]4C[C@@H](O)C5=CC(=O)C=C[C@]5(C)[C@H]4[C@@H](O)C[C@@]32C)O1` is reported as greater than 50 µM (CYP2C8; enzyme activity, inhibitor; human, liver microsomes; with preincubation).
